{"data": "Published values from different studies", "note": "± gives the spread as reported."}
{"Structure (SMILES)": "COC1C=COC2(C)Oc3c(C)c(O)c4c(c3C2=O)C2=NC3(CCN(CC(C)C)CC3)NC2=C(NC(=O)C(C)=CC=CC(C)C(O)C(C)C(O)C(C)C(OC(=O)c2cccnc2)C1C)C4=O (stereo not drawn)", "target or system": "Mycobacteroides abscessus", "test system": "ATCC 19977", "conditions": "50% human serum", "endpoint": "IC50", "result": "150 nM"}
{"Structure (SMILES)": "COc1ccc(C2CC(c3ccc(C)cc3)=Nc3ccccc3S2)cc1OC (stereo not drawn)", "test system": "Wistar rat, STZ-induced diabetes", "conditions": "oral, 20 mg/kg once daily, day 14", "endpoint": "body weight", "result": "180 ± 4.62 g"}
{"Structure (SMILES)": "NNc1nnc(Cl)c2ccccc12", "target or system": "Leishmania braziliensis", "assay": "parasite growth, MTT", "conditions": "promastigote", "endpoint": "IC50", "result": "> 25000 nM"}
{"Structure (SMILES)": "CN1C(=O)[C@@H](Cc2ccc(O)cc2)NC(=O)CNC(=O)[C@H](Cc2ccc3ccccc3c2)NC(=O)[C@H](CCCNC(=N)N)NC(=O)[C@H]1CCCNC(=O)c1ccc(CNC(=O)CN2CCN(CC(=O)O)CCN(CC(=O)O)CCN(CC(=O)O)CC2)cc1 [gallium-68 labelled]", "test system": "SCID mice, lymphoma xenograft, liver", "conditions": "intravenous, 1 h", "endpoint": "tissue uptake", "result": "2.3 ± 0.3 %ID/g"}
{"Structure (SMILES)": "CCN(CC)CCSC(=S)N1CCN(C(=O)/C=C/c2coc3cc(OC)ccc3c2=O)CC1", "target or system": "tomato spotted wilt virus", "assay": "viral infection, half-leaf method", "test system": "Nicotiana glutinosa", "conditions": "500 µg/mL", "endpoint": "protective effect", "result": "53.7 ± 2.3%"}
{"Structure (SMILES)": "O=[N+]([O-])/C(Br)=C/c1ccco1", "target or system": "Leishmania braziliensis", "assay": "parasite growth", "conditions": "72 h, promastigote", "endpoint": "IC50", "result": "1100 nM"}
{"Structure (SMILES)": "COc1ccccc1NC(=O)OC1C(C)C(OC)C=COC2(C)Oc3c(C)c(O)c4c(c3C2=O)C2=NC3(CCN(CC(C)C)CC3)NC2=C(NC(=O)C(C)=CC=CC(C)C(O)C(C)C(O)C1C)C4=O (stereo not drawn)", "target or system": "Mycobacteroides abscessus", "test system": "ATCC 19977", "conditions": "1:1 CAMHB:human serum", "endpoint": "IC50", "result": "150 nM"}
{"Structure (SMILES)": "NNc1nnc(NN)c2ccccc12", "target or system": "Leishmania braziliensis", "assay": "parasite growth, MTT", "conditions": "promastigote", "endpoint": "IC50", "result": "> 25000 nM"}
{"Structure (SMILES)": "COc1cc(/C=C(\\C#N)C(=O)c2ccc(O)c(O)c2)cc(I)c1O", "target or system": "Strongylocentrotus purpuratus", "assay": "Ca2+ release, antagonist", "test system": "sea urchin egg homogenate", "conditions": "together with: cADPR 300 nM", "endpoint": "IC50", "result": "3840 ± 390 nM"}
{"Structure (SMILES)": "CN(C)CCCSC(=S)N1CCN(C(=O)/C=C/c2coc3ccccc3c2=O)CC1", "target or system": "tomato spotted wilt virus", "assay": "viral infection, half-leaf method", "test system": "Nicotiana glutinosa", "conditions": "500 µg/mL", "endpoint": "curative effect", "result": "64.4 ± 7.9%"}
{"Structure (SMILES)": "CN(C(=O)c1ccn2ncc(-c3ccc(C(N)=O)cc3)c2c1)C1CCC(C#N)CC1 (stereo not drawn)", "target or system": "Cryptosporidium parvum", "assay": "parasite growth, imaging", "test system": "HCT-8", "conditions": "intracellular", "endpoint": "IC50", "result": "> 20000 nM"}
{"Structure (SMILES)": "Cc1cc(N2CCC(C#N)(C3(C)CC3)C2=O)cc(C(=O)NCc2cc(F)cc(-c3cnn(C)c3)c2)n1 (racemic)", "target or system": "Plasmodium falciparum", "assay": "parasite growth, [3H]hypoxanthine incorporation", "test system": "7G8", "conditions": "72 h", "endpoint": "IC50", "result": "18 nM"}
{"Structure (SMILES)": "COc1ccc(C2CC(c3ccc(C)cc3)=Nc3ccccc3S2)cc1 (stereo not drawn)", "test system": "Wistar rat, STZ-induced diabetes", "conditions": "oral, 20 mg/kg once daily, day 1", "endpoint": "body weight", "result": "198 ± 4.66 g"}
{"Structure (SMILES)": "CC(C)(C)OC(=O)N[C@H](Cc1ccccc1)[C@@H](O)CN1CCC(N2CCCCC2)CC1", "target or system": "Plasmodium berghei", "assay": "parasite growth", "test system": "HepG2", "conditions": "liver stage", "endpoint": "IC50", "result": "1890 nM"}
{"Structure (SMILES)": "N#C/C(=C\\c1ccc(O)c(O)c1)C(=O)c1ccc(O)c(O)c1", "target or system": "Strongylocentrotus purpuratus", "assay": "Ca2+ release, antagonist", "test system": "sea urchin egg homogenate", "conditions": "together with: cADPR 300 nM", "endpoint": "IC50", "result": "1100 ± 160 nM"}
{"Structure (SMILES)": "[64Cu+2].c1ccc(CNCc2ccc(CN3CCCN4CCNCCCN(CC4)CC3)cc2)nc1", "target or system": "CXCR4", "test system": "NOD/SCID mouse, U87 and U87-stb-CXCR4 xenografts, stomach", "conditions": "iv, 90 min, ex vivo, together with: AMD3465 25 mg/kg sc before tracer", "endpoint": "tissue uptake", "result": "1.77 ± 0.09 %ID/g"}
{"Structure (SMILES)": "C/C(=C\\c1ccco1)[N+](=O)[O-]", "target or system": "Leishmania braziliensis", "assay": "parasite growth", "conditions": "72 h, promastigote", "endpoint": "IC50", "result": "2300 nM"}
{"Structure (SMILES)": "CCCCCCCCCC1CC2CCCC3CC(CCCCCCCCC)NC(=N1)N23 (stereo not drawn)", "target or system": "Candida glabrata", "assay": "fungal growth", "test system": "ATCC 90030", "endpoint": "IC50", "result": "3750 nM"}
{"Structure (SMILES)": "N=C(N)NCCC[C@@H]1NC(=O)[C@H](Cc2c[nH]c3ccccc23)NC(=O)[C@@H](CC2CCCCC2)NC(=O)[C@@H]2CCCN2C(=O)[C@@H](NC(=O)CCc2ccccc2)CCCNC1=O", "test system": "C57BL/6J mouse, plasma plasma", "conditions": "oral, 1 mg/kg single dose", "endpoint": "MRT(0-last)", "result": "37.7 min"}
{"Structure (SMILES)": "CNC(=O)c1ccc(-c2cnn3ccc(C(=O)N(C)c4ccc(C#N)cn4)cc23)cc1", "target or system": "Cryptosporidium parvum", "assay": "parasite growth, imaging", "test system": "HCT-8", "conditions": "intracellular", "endpoint": "IC50", "result": "232 nM"}
{"Structure (SMILES)": "Cc1ncc(COP(=O)(O)O)c(C=NNC(=N)NO)c1O", "target or system": "Human mastadenovirus C", "assay": "viral replication, plaque reduction", "test system": "A549, Ad5 McEwen", "conditions": "6 days", "endpoint": "IC50", "result": "inactive"}
{"Structure (SMILES)": "O=Cc1c(O)ccc2ccccc12", "target or system": "HUVEC", "assay": "RNA sequencing, refers to: FAM111B", "conditions": "75 µM, 24 h", "how to read": "baseline: DMSO", "endpoint": "log2 fold change", "result": -4.71}
{"Structure (SMILES)": "CNC(=O)c1ccc(-c2cnn3ccc(C(=O)Nc4ccc(C#N)cn4)cc23)cc1", "target or system": "Cryptosporidium parvum", "assay": "parasite growth, imaging", "test system": "HCT-8", "conditions": "intracellular", "endpoint": "IC50", "result": "> 20000 nM"}
{"Structure (SMILES)": "CCN(CC)CC#CCNc1ccnc2cc(Cl)ccc12", "target or system": "Plasmodium falciparum", "assay": "parasite growth, SYBR green I", "test system": "3D7", "conditions": "20% human serum", "endpoint": "IC50", "result": "173 to 352 nM"}
{"note": "For quick reference, copied from above:"}
{"Structure (SMILES)": "N=C(N)NCCC[C@@H]1NC(=O)[C@H](Cc2c[nH]c3ccccc23)NC(=O)[C@@H](CC2CCCCC2)NC(=O)[C@@H]2CCCN2C(=O)[C@@H](NC(=O)CCc2ccccc2)CCCNC1=O", "test system": "C57BL/6J mouse, plasma plasma", "conditions": "oral, 1 mg/kg single dose", "endpoint": "MRT(0-last)", "result": "37.7 min"}
{"Structure (SMILES)": "CNC(=O)c1ccc(-c2cnn3ccc(C(=O)N(C)c4ccc(C#N)cn4)cc23)cc1", "target or system": "Cryptosporidium parvum", "assay": "parasite growth, imaging", "test system": "HCT-8", "conditions": "intracellular", "endpoint": "IC50", "result": "232 nM"}
{"Structure (SMILES)": "Cc1ncc(COP(=O)(O)O)c(C=NNC(=N)NO)c1O", "target or system": "Human mastadenovirus C", "assay": "viral replication, plaque reduction", "test system": "A549, Ad5 McEwen", "conditions": "6 days", "endpoint": "IC50", "result": "inactive"}
{"Structure (SMILES)": "O=Cc1c(O)ccc2ccccc12", "target or system": "HUVEC", "assay": "RNA sequencing, refers to: FAM111B", "conditions": "75 µM, 24 h", "how to read": "baseline: DMSO", "endpoint": "log2 fold change", "result": -4.71}
